Results gathered from unrelated publications.
Parts stem from different laboratories: compare values within a part only. Substitutions count along the parent as printed.

Set 1
Target: CCND1, cyclin fold, Cln2 fusion (human)
Method: yeast growth competition, sequencing
Sample: yeast
Setting: weak parent motif
Baseline: not given
Reading: higher = stronger binding
Parent: TICRR docking peptide (human); TKVRRNLFNQELL; partner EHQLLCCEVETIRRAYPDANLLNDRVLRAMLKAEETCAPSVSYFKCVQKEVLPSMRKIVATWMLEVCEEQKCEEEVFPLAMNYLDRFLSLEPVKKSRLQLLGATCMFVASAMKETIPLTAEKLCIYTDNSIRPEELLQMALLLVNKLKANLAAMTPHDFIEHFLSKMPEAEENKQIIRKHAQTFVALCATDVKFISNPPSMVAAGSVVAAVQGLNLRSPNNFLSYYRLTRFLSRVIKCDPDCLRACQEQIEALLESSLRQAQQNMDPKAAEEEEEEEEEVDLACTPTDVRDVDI
| Variant | normalised enrichment score |
| --- | --- |
| TKVRKNLLNQELL [R5K F8L] | 0.285 |
| TKVRKNLFNQELL [R5K] | 0.163 |
| TKVRANAFNQELL [R5A L7A] | 0.11 |
| TAVRRNLFNQELL [K2A] | 1.27 |
| TKVRRNLFNAELL [Q10A] | -0.596 |
| TKARRNLFNQELL [V3A] | -0.668 |
| AKVRRNLFNQELL [T1A] | 0.337 |
| TKVRRNAFNQELL [L7A] | -0.0913 |
| TKVARNLFNQELL [R4A] | 0.224 |
| TKVRRNLFNQELA [L13A] | 0.441 |

Set 2
Target: ABI1, truncated, D143A, DHFR fusion (Arabidopsis thaliana)
Method: DHFR PCA, deep sequencing
Sample: yeast
Setting: methotrexate growth selection, single substitutions
With: (+)-ABA 17 µM
Baseline: wild-type fitted maximum
Reading: higher = stronger binding
Parent: PYL1, truncated, DHFR fusion (Arabidopsis thaliana); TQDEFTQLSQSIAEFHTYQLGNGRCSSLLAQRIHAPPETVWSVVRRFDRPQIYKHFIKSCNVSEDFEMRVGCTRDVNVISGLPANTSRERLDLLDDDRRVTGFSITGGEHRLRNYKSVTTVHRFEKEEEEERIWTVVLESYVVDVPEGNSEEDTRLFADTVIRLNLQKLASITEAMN; partner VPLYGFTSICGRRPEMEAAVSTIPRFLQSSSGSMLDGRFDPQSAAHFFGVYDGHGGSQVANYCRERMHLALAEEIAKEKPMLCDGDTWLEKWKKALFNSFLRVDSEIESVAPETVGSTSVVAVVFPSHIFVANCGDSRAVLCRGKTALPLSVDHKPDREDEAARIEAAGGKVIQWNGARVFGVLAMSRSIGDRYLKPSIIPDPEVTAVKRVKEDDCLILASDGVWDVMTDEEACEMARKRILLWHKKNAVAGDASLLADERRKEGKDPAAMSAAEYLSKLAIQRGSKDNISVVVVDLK
| Variant | relative binding score [%] |
| --- | --- |
| S117K | -0.707 |
| R90V | 71.4 |
| R99Q | 81.8 |
| L94F | 87.4 |
| V142T | 80.1 |
| Q7N | 78.8 |
| L94P | -4.36 |
| D92A | 3.11 |
| F56Y | 53.7 |
| L156T | 89.6 |
| A35W | -16.9 |
| E174R | 45.6 |
| E130V | 83.8 |
| R163P | -14.7 |
| H55Q | 103 |
| F47Y | 8.57 |
| K58N | 65.5 |

Set 3
Target: RNA binding protein fox-1 homolog 2, RRM domain, GST-SBP tag (RBFOX2, Homo sapiens, UniProt O43251-10, residues 100-194)
Method: RNA Bind-n-Seq
Form: RNA
Sample: in vitro
Tested at: 365 nM
Setting: natural RNA segment, single round, ends assumed
Baseline: no-protein control
Reading: higher = stronger binding
Shared flanks, not repeated: GGGAGUUCUACAGUCCGACGAUC … UGGAAUUCUCGGGUGCCAA
Target sequence (chain): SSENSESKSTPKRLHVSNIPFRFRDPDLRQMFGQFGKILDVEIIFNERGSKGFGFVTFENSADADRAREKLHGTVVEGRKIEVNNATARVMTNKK
| Strand | RBNS enrichment (R) |
| --- | --- |
| AGCCUCACCACCAUGCUAACACUGAGCAUGGUGAGGAGGAGGAAGCUUUGGCUAGCUAAACAUGUUUAAUAAGGCCAUAAAAACUGAGAAAGAAAAACAUUCAACUUUAG | 0.337 |
| GCGCCAGCCGUGGCACAACGCGGAGGGCCGGCUGCGGUACGGGCUGCGGCCGGCGAACCCCACGGAGGAGGGCCUGGCCAGCCUGCACAGCGUGCUGUUCCGCAAGCAGC | 0.445 |
| AGUAGACAUUAUGUUACUAAAUCAGCACUUUAAAAUCUUUGGUUCUCUAAUUCAUAUGAAUUUGCUGUUUGCUCUAAUUUCUUUGGGCUCUUCUAAUUUGAGUGGAGUAC | 0.493 |
| UGACUUUUUUUUAAUGAAGGGAAUAAUUGCCAAGUACUUAAAUCUACCUGAGGUACACUUUUAAACCUCAUCUUCUAUUUCUUCCCUCUCUUCUGCAAAUGAACAAAACA | 0.422 |
| CUACACUUCUGAAGUAUGAGCAAAGCUUAAGGUGAGUCUUGUGAUAUCUCUUUCACUUCCUCCCCAGCUGCCAAAUGGGGAUAAAUAAUCUUACCUACCUCCUGGGGGGG | 0.334 |
| GGAUCACAGUAUGGGAAUGACUGAUGUGACCUUGAAUGCAGCUUGGUUUGACUGACAUUAAAGCCAGUGUUAAAAACUAAAGCUUAGCAACAAAUGUUUUACUAUUUUUA | 2.28 |
| UCACUUCGUUUUUGAGAAGAGUGAUGCCUUGGGCAUGCUUUUUUUUUUUUCUUUUUUAGAAAACAGGGAGUUGAAGUCCAACCUAUUUAAAAACCCCACCAUUUGGAGAA | 0.425 |
| CUCAGAAAUAAAUCACAGAUGCAUAUAGACACACAUACAUAAUGGUACUCCCAAACUGACAAUUUUACCUAUUCUGAAAAAGACAUAAAACAGAAUUUGGUAGCACUUAC | 1.02 |

Other studies, line by line
Method: cross-linking MS
Setting: hits only
CCT7: CCT7 (Homo sapiens, UniProt Q99832)
| Substance | partner | interaction screen |
| --- | --- | --- |
| MYL6 (Homo sapiens, UniProt P60660) | MYO18A (Homo sapiens, UniProt Q92614) | cross-linked |
| P4HB (Homo sapiens, UniProt P07237) | P4HA1 (Homo sapiens, UniProt P13674) | cross-linked |
| CCT4 (Homo sapiens, UniProt P50991) | CCT7 | cross-linked |
| CCT2 (Homo sapiens, UniProt P78371) | CCT7 | cross-linked |

Excerpt of the above (set 2):
| Variant | relative binding score [%] |
| --- | --- |
| E130V | 83.8 |
| R163P | -14.7 |
